Experimental data of several laboratories.
± marks the error that the study gave.
DRD4: D(4) dopamine receptor (DRD4, Homo sapiens, UniProt P21917)
UniProt P21917, sequence (whole entry, looked up): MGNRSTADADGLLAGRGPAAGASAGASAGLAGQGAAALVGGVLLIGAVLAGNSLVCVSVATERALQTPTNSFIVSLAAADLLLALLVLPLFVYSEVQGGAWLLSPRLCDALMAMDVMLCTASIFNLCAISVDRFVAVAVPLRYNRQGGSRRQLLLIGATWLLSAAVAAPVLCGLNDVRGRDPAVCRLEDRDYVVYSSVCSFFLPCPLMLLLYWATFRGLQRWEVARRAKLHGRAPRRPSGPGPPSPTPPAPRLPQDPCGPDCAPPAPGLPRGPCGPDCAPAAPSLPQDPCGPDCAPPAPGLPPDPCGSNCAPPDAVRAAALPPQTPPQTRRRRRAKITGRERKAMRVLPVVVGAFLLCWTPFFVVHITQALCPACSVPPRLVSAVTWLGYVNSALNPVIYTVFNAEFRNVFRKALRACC
HDAC11: Histone deacetylase 11 (HDAC11, Homo sapiens, UniProt Q96DB2)
UniProt Q96DB2, sequence (whole entry, looked up): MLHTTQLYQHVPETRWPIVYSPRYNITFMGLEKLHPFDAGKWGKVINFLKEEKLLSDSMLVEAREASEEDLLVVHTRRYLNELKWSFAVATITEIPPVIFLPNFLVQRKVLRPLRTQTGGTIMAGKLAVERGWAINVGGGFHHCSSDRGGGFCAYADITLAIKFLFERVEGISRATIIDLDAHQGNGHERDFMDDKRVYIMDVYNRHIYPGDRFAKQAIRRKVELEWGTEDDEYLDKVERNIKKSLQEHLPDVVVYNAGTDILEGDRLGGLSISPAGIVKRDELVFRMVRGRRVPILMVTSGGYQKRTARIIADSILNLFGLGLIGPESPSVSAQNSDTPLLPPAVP
PLAU: Urokinase-type plasminogen activator (PLAU, Homo sapiens, UniProt P00749)
KMT2C: Histone-lysine N-methyltransferase 2C (KMT2C, Homo sapiens, UniProt Q8NEZ4)
UniProt P47898, sequence (whole entry, looked up): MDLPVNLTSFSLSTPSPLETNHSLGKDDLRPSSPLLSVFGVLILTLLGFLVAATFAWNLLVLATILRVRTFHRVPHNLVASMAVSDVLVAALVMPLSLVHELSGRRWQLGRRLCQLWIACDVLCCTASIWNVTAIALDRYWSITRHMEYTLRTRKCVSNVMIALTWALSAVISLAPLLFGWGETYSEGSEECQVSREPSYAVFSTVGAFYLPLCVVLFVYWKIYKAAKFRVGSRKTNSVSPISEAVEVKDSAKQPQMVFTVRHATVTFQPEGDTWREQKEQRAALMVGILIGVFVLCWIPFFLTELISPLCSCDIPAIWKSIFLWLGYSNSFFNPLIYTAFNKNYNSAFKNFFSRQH
UniProt O14744, sequence (whole entry, looked up): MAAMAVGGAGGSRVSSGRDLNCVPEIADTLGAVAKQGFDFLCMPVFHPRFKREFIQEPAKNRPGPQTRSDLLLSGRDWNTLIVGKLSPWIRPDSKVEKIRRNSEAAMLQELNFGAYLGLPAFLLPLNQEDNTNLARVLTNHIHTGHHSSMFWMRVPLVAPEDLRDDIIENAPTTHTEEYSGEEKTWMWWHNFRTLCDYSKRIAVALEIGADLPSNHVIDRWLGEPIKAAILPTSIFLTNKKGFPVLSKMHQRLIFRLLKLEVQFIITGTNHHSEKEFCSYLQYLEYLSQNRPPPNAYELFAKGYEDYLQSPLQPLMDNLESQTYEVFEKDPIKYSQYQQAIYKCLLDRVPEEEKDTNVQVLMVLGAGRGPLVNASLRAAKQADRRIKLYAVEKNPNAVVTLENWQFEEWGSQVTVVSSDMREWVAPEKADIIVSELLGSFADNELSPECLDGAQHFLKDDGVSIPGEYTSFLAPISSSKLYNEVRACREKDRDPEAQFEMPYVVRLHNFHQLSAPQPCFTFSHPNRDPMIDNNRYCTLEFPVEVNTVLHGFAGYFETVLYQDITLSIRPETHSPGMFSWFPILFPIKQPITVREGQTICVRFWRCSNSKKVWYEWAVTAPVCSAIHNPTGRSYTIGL
UniProt Q03181, sequence (whole entry, looked up): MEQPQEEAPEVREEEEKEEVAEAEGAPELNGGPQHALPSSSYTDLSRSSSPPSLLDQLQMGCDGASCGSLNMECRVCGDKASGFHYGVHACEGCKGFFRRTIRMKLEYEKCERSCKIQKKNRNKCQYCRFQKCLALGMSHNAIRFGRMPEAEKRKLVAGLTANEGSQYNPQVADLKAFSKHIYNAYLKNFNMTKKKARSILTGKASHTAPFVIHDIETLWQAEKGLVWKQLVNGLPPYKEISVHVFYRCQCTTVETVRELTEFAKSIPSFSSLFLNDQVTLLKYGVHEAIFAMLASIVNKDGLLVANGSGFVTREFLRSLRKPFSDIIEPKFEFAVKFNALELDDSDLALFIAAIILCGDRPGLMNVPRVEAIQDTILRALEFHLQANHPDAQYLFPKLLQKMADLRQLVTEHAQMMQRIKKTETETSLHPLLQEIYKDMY
UniProt P52790, sequence (whole entry, unmodified, looked up): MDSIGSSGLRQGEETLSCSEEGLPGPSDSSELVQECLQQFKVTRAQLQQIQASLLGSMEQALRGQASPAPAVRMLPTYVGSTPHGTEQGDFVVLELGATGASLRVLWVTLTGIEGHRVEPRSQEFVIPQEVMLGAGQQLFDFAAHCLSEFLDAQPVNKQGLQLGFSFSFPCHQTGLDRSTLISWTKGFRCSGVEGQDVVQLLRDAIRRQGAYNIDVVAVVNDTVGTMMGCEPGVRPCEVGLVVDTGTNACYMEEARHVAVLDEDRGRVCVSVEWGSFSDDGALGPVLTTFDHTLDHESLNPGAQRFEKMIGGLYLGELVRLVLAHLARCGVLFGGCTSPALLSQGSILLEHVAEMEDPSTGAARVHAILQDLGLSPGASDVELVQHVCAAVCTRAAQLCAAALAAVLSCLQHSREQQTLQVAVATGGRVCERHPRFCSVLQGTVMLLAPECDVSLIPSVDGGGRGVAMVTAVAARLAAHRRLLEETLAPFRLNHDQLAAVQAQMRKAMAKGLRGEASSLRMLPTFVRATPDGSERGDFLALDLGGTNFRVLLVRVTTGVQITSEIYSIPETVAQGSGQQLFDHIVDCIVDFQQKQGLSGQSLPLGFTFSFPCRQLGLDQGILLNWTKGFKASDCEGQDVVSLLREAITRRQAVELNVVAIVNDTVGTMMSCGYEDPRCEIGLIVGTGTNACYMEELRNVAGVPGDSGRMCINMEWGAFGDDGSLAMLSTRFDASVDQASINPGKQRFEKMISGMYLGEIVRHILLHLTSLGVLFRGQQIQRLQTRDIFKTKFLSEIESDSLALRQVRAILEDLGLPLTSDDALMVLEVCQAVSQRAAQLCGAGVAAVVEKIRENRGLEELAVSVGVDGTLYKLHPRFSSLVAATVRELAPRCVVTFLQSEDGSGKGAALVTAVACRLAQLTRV
UniProt P30968, sequence (whole entry, unmodified, looked up): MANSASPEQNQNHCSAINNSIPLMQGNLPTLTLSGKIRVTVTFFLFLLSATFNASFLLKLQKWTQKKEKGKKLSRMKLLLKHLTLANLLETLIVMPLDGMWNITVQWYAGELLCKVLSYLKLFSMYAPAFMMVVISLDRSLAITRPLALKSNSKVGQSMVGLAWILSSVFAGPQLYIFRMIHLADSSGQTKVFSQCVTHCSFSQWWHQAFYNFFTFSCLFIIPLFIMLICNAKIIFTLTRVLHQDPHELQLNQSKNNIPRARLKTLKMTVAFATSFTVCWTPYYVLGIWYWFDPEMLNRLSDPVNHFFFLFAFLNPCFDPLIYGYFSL
UniProt Q6VB83, sequence (whole entry, looked up): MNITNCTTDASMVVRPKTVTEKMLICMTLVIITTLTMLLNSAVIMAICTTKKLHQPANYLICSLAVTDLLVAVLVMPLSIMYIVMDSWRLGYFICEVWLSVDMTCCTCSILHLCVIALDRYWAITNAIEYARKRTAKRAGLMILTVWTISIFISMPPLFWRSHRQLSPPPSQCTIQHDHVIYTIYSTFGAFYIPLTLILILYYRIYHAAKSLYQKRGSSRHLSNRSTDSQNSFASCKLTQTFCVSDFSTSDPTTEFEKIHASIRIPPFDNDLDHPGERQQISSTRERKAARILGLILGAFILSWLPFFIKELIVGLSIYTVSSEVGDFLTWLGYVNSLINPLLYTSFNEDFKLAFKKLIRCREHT
UniProt P22059, sequence (whole entry, looked up): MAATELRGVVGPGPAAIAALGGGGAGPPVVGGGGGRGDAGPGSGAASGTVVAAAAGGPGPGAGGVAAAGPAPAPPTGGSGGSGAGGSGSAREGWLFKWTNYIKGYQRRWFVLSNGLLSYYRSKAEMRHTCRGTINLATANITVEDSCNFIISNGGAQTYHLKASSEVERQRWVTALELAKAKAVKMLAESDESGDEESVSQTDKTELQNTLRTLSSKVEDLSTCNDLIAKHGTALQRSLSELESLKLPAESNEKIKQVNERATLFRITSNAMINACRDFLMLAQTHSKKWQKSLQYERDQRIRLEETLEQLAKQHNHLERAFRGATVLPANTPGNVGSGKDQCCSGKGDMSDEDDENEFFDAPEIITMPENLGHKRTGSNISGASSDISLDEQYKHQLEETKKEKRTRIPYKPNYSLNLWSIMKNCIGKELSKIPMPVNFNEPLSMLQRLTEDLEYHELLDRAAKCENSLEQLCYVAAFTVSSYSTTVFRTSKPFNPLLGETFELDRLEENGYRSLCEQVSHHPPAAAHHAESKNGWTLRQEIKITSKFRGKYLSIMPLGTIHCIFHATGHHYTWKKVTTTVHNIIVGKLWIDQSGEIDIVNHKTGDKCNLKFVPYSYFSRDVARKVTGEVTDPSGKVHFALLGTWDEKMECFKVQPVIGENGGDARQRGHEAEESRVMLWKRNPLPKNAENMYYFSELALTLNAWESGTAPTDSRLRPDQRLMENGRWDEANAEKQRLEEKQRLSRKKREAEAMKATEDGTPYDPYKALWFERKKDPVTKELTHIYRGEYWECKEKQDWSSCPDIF

Compound | target | assay | test system | conditions | Ki
CC(C)C[C@H](NC(=O)[C@H](Cc1ccccc1)NC(=O)c1cnccn1)B(O)O | 20S proteasome (Plasmodium falciparum, UniProt A0A5K1K7U1+Q8IJT1) | inhibitor, progress curve | – | – | 0.0062 µM
Cc1cc(C)cc(-c2[nH]c3ccc(C(C)(C)C(=O)N4CC5CCC4CC5)cc3c2[C@H](C)CNCCc2ccncc2)c1 | GNRHR (Homo sapiens, UniProt P30968, del191-191) | binding, NanoBRET | – | 4 h, 4 °C, with: 10 nM sCy5-D-Lys6-GnRH | 0.00077 ± 0.00018 µM
CN(C[C@@H]1C[C@H]1CCNC(=O)c1cc2ccccc2[nH]1)[C@@H]1Cc2cccc3[nH]c(=O)n(c23)C1 | DRD4 | binding | – | – | 1.49 ± 0.142 µM
Cc1cc(C(C)(C)C)ccc1OS(=O)(=O)Oc1cccc(C(=O)NO)c1 | HDAC11 | – | – | – | 0.861 µM
CCCCC(CC)CNC1=N[C@H](CO)[C@H](O)[C@H](O)[C@H]1O (stereo partly shown) | β-glucosidase sweet almond | enzyme activity, inhibitor | – | pH 5.00 | 0.0172 ± 0.006 µM
CN(C)CCN(Cc1ccc(-c2ccc(CNCCc3ccccc3)cc2)cc1)C(=O)CCC1CCCC1 | HTR5A (Homo sapiens, UniProt P47898) | binding, radioligand displacement | – | with: [3H]5-CT | < 2 µM
OC[C@H]1OC(O)[C@H](O)[C@@H](O)[C@@H]1O (stereo partly shown) | Hexokinase-3 (HK3, Homo sapiens, UniProt P52790, N221A) | substrate inhibition | – | mutant N221A, partial substrate inhibition model, with: ATP 20 mM | 51000 ± 5000 µM
CN1CCc2ccc(C3CC3c3ccc4cc(C(=N)N)ccc4c3)cc2C1C1CCC1 (stereo not shown) | PLAU | inhibitor | – | pH 7.4 | 0.042 µM
OC[C@H]1N/C(=N\Cc2cccc(F)c2)[C@H](O)[C@@H](O)[C@H]1O | β-glucosidase sweet almond | enzyme activity, inhibitor | – | pH 5.00 | 0.124 ± 0.017 µM
N=C(N)c1ccc2cc(C(=O)Nc3ccc4c(c3)C(c3ccccc3)=NCC4)ccc2c1 | PLAU | inhibitor | – | pH 7.4 | 0.29 µM
Nc1ncnc2c1ncn2[C@@H]1O[C@H](CSCC[C@H](N)C(=O)O)[C@@H](O)[C@H]1O | KMT2C | methyltransferase activity, noncompetitive inhibitor, MALDI-TOF mass spectrometry | – | with: varied H3 peptide | 170 µM
CSC[C@H]1O[C@@H](n2cnc3c(N)ncnc32)[C@H](O)[C@@H]1O | Protein arginine N-methyltransferase 5, with WDR77 (PRMT5, Homo sapiens, UniProt O14744) | – | – | – | 0.3 µM
COc1cc(C2CC2c2ccc3c(c2)C(C(C)C)N(C)CC3)cc2ccc(C(=N)N)cc12 (stereo not shown) | PLAU | inhibitor | – | pH 7.4 | 0.094 µM
Cc1cc(OS(=O)(=O)Oc2ccc(C(F)(F)F)cc2)cc(C(=O)NO)c1 | HDAC11 | – | – | – | 0.504 µM
C=CCNC(=O)Nc1cccc2ccc(N)nc12 | PLAU | inhibitor | – | pH 7.4 | > 10 µM
Cc1c(OS(=O)(=O)Oc2ccc(Br)cc2)cccc1C(=O)NO | HDAC11 | – | – | – | 0.457 µM
Nc1ccc2nc(N)ccc2c1 | PLAU | inhibitor | – | pH 7.4 | > 104 µM
Cc1cc(C(C)(C)C)ccc1OS(=O)(=O)Oc1cccc(C(=O)NO)c1C | HDAC11 | – | – | – | 0.542 µM
Nc1ncnc2c1ncn2[C@@H]1O[C@H](C[C@@H](N)CC[C@H](N)C(=O)O)[C@@H](O)[C@H]1O | KMT2C | methyltransferase activity, noncompetitive inhibitor, enzyme-coupled methylation | – | with: varied H3 peptide | 204 µM

Compound | target | assay | test system | conditions | Ki
COC(=O)Nc1ccc2nc(C(=N)N)ccc2c1 | PLAU | inhibitor | – | pH 7.4 | > 50 µM
CCCCCCCCCCCC/N=C1\N[C@H](CO)[C@H](O)[C@H](O)[C@H]1O | β-glucosidase sweet almond | enzyme activity, inhibitor | – | pH 5.00 | 0.0205 ± 0.0069 µM
Cc1cc(OS(=O)(=O)Oc2ccc(C(C)(C)C)cc2C)cc(C(=O)NO)c1 | HDAC11 | – | – | – | 1.61 µM
COc1ccc(C/N=C2\N[C@H](CO)[C@H](O)[C@H](O)[C@H]2O)cc1 | β-glucosidase sweet almond | enzyme activity, inhibitor | – | pH 5.00 | 0.0559 ± 0.0028 µM
CC[C@@H](CO)NC(=O)[C@@H]1C=C2c3cccc4c3c(cn4C)C[C@H]2N(C)C1 | 5-hydroxytryptamine receptor 1E (5HT1E, Cavia porcellus, UniProt Q6VB83) | binding, radioligand competition | AV12 cell membranes | pH 7.4, 37 °C, with: [3H]5-HT | 0.0347 µM
OC[C@H]1N/C(=N\CCCc2ccccc2)[C@H](O)[C@@H](O)[C@H]1O | β-glucosidase sweet almond | enzyme activity, inhibitor | – | pH 5.00 | 0.0281 ± 0.0026 µM
Cc1cc(OS(=O)(=O)Oc2cccc(C(C)(C)C)c2)cc(C(=O)NO)c1 | HDAC11 | – | – | – | 1.7 µM
Cc1cccc(C/N=C2\N[C@H](CO)[C@H](O)[C@H](O)[C@H]2O)c1 | β-glucosidase sweet almond | enzyme activity, inhibitor | – | pH 5.00 | 0.293 ± 0.096 µM
CC1Cc2ccccc2N1C(=O)NCCCCN(C)[C@@H]1Cc2cccc3[nH]c(=O)n(c23)C1 (mixture of isomers) | DRD4 | binding | – | – | 0.0309 ± 0.00261 µM
C[C@H](CCC(=O)NCCS(=O)(=O)O)[C@H]1CC[C@H]2[C@@H]3[C@@H](O)C[C@@H]4C[C@H](O)CC[C@]4(C)[C@H]3CC[C@]12C | OSBP (Homo sapiens, UniProt P22059) | – | – | – | > 100 µM
N=C(N)c1ccc2cc(C(=O)Nc3ccc4c(c3)C(C3CCCCC3)=NCC4)ccc2c1 | PLAU | inhibitor | – | pH 7.4 | 0.0663 µM
OC[C@H]1N/C(=N\CC2CCCCCC2)[C@H](O)[C@@H](O)[C@H]1O | β-glucosidase sweet almond | enzyme activity, inhibitor | – | pH 5.00 | 0.0271 ± 0.0099 µM
Cc1c(OS(=O)(=O)Oc2ccc(C(F)(F)F)cc2)cccc1C(=O)NO | HDAC11 | – | – | – | 0.187 µM
Cc1c(C)n(Cc2ccc(-c3ccccc3C(=O)O)cc2)c2ccc(C(=O)N[C@@H](C)c3ccc([N+](=O)[O-])cc3)cc12 | PPARD (Homo sapiens, UniProt Q03181) | – | – | – | 10.5 µM
OC[C@H]1N/C(=N\Cc2ccc(C(F)(F)F)cc2)[C@H](O)[C@@H](O)[C@H]1O | β-glucosidase sweet almond | enzyme activity, inhibitor | – | pH 5.00 | 0.0879 ± 0.0075 µM
Cc1c(OS(=O)(=O)Oc2ccc(Oc3ccccc3)cc2)cccc1C(=O)NO | HDAC11 | – | – | – | 0.149 µM
N=C(N)c1ccc2cc(C(=O)Nc3ccccc3)cc(-c3ncccn3)c2c1 | PLAU | inhibitor | – | pH 7.4 | 7.85 µM
O=[N+]([O-])c1ccc2c(N=Nc3c(O)ccc4ccccc34)c(O)cc(S(=O)(=O)O)c2c1 | Diphosphomevalonate decarboxylase (Staphylococcus epidermidis, UniProt Q9FD73) | inhibitor | – | pH 7, with: ATP (varied) | 1.8 ± 0.1 µM
